Measured values gathered from unrelated publications.
Compare with care: the assays were run in different laboratories.
Cell line: WI-38
Observed: cell growth or viability

| SMILES | method | time | IC50 [µM] |
| --- | --- | --- | --- |
| Cc1cc(N2CCN(C(=O)CN3CCN(C)CC3)CC2)n2ncnc2n1 | – | – | > 100 |
| Cc1ccc(NC(=O)N/N=C2\CC3(CCN(C)CC3)Oc3ccccc32)cc1 | – | – | 66.3 |
| COc1cc(/C=C/C(=O)OCCCC[P+](c2ccccc2)(c2ccccc2)c2ccccc2)ccc1O | SRB | 24 h | 98.6 |
| O=C(Cn1cc(C2CC(c3ccccc3)=NN2)nn1)Nc1nc(-c2ccccc2)cs1 (stereo not shown) | MTT | 72 h | 0.205 |
| CC(=NN=c1sc(C(=O)c2ccccc2)nn1-c1ccccc1)c1ccc(S(=O)(=O)N2CCC(C)CC2)cc1 | – | – | 69.7 |
| Cc1ccc(C(=O)/C=C/c2cn(CC(=O)Nc3nc(-c4ccccc4)cs3)nn2)cc1 | MTT | 72 h | 3.48 |
| O=C(/C=C/c1ccc(O)c(O)c1)OCCCC[P+](c1ccccc1)(c1ccccc1)c1ccccc1 | SRB | 48 h | 70.6 |
| CN1CCC2(CC1)C/C(=N\NC(=O)Nc1ccc(Cl)cc1)c1ccccc1O2 | – | – | 100 |
| Cc1nn(-c2ccc(S(=O)(=O)N[C@@H](CO)CC(C)C)cc2)c2nn3nnnc3nc12 | MTT | 72 h | 0.98 |
| O=C(/C=C/c1ccc(O)cc1)OCCCC[P+](c1ccccc1)(c1ccccc1)c1ccccc1 | SRB | 48 h | 113 |
| N=C(N)Nc1nc2ccccc2[nH]1 | MTT | 24 h | > 500 |
| CN1CCC2(CC1)C/C(=N\NC(=O)Nc1ccc([N+](=O)[O-])cc1)c1ccccc1O2 | – | – | 67.2 |
| Cc1cc(N2CCN(C(=O)CN3CCCCC3)CC2)n2ncnc2n1 | – | – | 36.5 |
| CCN1CCC2(CC1)C/C(=N\NC(=O)Nc1ccc(Cl)cc1)c1ccccc1O2 | – | – | 100 |
| Cc1c(-c2cccc(C3=NCCN3)c2)oc(-c2cccc(C3=NCCN3)c2)c1C | SRB | – | 1.3 |
| COc1ccc(NC(=O)N/N=C2\CC3(CCN(C)CC3)Oc3ccccc32)cc1 | – | – | 72.9 |
| Cc1ccc(C(C)C)cc1.N=C(N)Nc1nc2ccccc2s1.[Cl-].[Cl][Ru+] | MTT | 24 h | 136 |
| O=C(/C=C/c1ccccc1)OCCCC[P+](c1ccccc1)(c1ccccc1)c1ccccc1 | SRB | 48 h | 66.3 |
| CN1CCC2(CC1)C/C(=N\NC(=O)Nc1ccccc1)c1ccccc1O2 | – | – | 49.6 |
